Experimental data of several laboratories.
Numbered parts are unrelated; each lists some results of a single study.

Block 1
Target: Sal-like protein 4, full length isoform A (SALL4, Homo sapiens, UniProt Q9UJQ4, residues 1-1053)
UniProt Q9UJQ4, sequence (whole entry, looked up): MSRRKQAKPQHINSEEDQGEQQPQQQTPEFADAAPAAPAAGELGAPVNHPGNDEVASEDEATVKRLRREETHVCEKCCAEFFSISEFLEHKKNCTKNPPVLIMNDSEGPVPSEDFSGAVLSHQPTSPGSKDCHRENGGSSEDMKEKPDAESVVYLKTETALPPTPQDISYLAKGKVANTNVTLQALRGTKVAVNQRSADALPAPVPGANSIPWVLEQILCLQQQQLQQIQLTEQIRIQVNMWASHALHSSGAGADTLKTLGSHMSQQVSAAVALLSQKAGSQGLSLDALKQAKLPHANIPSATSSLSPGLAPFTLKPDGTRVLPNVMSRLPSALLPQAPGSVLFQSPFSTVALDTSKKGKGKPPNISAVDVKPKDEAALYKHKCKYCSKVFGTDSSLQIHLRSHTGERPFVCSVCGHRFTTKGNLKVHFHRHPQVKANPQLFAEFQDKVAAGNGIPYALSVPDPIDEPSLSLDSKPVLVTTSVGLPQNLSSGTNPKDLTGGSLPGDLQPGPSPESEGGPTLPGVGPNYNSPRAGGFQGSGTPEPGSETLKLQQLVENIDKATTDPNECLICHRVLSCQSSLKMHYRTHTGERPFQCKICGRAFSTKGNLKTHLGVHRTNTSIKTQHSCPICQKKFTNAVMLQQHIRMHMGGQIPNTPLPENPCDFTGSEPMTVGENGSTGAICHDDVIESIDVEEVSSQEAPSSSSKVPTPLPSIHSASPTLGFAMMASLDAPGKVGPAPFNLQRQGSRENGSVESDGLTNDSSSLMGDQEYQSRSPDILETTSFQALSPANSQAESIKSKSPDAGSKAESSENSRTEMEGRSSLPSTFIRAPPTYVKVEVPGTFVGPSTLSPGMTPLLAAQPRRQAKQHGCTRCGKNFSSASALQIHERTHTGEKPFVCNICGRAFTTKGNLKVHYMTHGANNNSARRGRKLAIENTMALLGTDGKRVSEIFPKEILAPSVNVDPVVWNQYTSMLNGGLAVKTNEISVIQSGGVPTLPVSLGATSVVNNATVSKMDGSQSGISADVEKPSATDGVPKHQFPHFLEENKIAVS
Technique: universal PBM
Molecule type: double-stranded DNA, one strand shown
Matrix: in vitro
Concentration: 600 nM
Setting: 8-mer, flanks averaged, mean of replicates
Direction: higher = stronger binding
Quantity: E-score
GAACCTAA: -0.0814
GGGACCAA: -0.273
CCAGCCCA: -0.358
GTAGCGTA: 0.00482
CTCTCTGA: -0.149

Block 2
Target: RNA binding protein fox-1 homolog 2, RRM domain, GST-SBP tag (RBFOX2, Homo sapiens, UniProt O43251-10, residues 100-194)
Technique: RNA Bind-n-Seq
Molecule type: RNA
Matrix: in vitro
Concentration: 365 nM
Setting: natural RNA segment, single round, ends assumed
Relative to: no-protein control
Direction: higher = stronger binding
Quantity: RBNS enrichment (R)
GGGAGUUCUACAGUCCGACGAUCGGGAUUUGUAGUAUCAGCUUGUUGAGCAAUGACUUUGAAUCUAGUUUUCAGUGAUCAGAAGCAGCAGUUAUUUGAGUGUAUGAAUGGAAUGAUGAUCACUGUGCUAUAAUUGGAAUUCUCGGGUGCCAA: 7.95
GGGAGUUCUACAGUCCGACGAUCGCACCACCGGGAUCUGUCCUGCAAAGUUGAAGGGAUCCUUUGGUGCCAGCUGGUGUUUGGAAGUAGGAACCAUGAUGGCAUUACCUGGACAAGGAGAUUGGGGACAACUCUGGAAUUCUCGGGUGCCAA: 0.37
GGGAGUUCUACAGUCCGACGAUCAGACCUUAAUUCUUACUCACUGCUGUGGCUGGAGAGUAUAAGGAAUGCUUUUUCUUUUUUUCUUUCUUUCUUUCUUUUUUUUUUUUAAGACAGCAGUCUUUUUUUUUAAUUGGAAUUCUCGGGUGCCAA: 0.99
GGGAGUUCUACAGUCCGACGAUCGAGUUAGCAUCUUUAUUUUUGUAUCAAAGAUAAAGGUUAUUUUGAAAAUUAUUAGGGUUUUUACAUAACUCUGGAAUCUGUUGCUUUUAUAAACAAAUUGUUCAAUUUUAUGGAAUUCUCGGGUGCCAA: 0.907

Block 3
Target: Histone acetyltransferase KAT6A, winged helix 2, GST fusion (KAT6A, Homo sapiens, UniProt Q92794, residues 85-181)
Technique: protein binding microarray
Molecule type: double-stranded DNA, one strand shown
Matrix: in vitro
Concentration: not given
Setting: 8-mer, flanks averaged, mean of 2 arrays, mostly near background
Relative to: not given
Direction: higher = stronger binding
Quantity: E-score
Construct (chain): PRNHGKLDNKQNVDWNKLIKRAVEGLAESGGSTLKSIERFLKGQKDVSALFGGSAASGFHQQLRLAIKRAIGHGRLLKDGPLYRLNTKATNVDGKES
ATTCTGCG: 0.0163
TAAGTTGA: 0.134
CACTCATA: -0.11
CCAGCGGA: 0.0231
GGGAGATA: -0.0718
AAAACTCG: 0.143
GCAAACCC: 0.101

Further values, each from its own experiment
PhoQ, residues 284 288 289 292 302 303 ASVMEA — fold induction (PhoP, residues 12 14 15 18 19 GHCSL (Escherichia coli, UniProt P23836); Sort-seq, refers to: YFP reporter; E. coli; PhoQ-PhoP variant library, together with: 10 µM Mg2+; relative to: high Mg2+ state, higher = stronger signaling): 15.5

A few entries again (block 2):
GGGAGUUCUACAGUCCGACGAUCAGACCUUAAUUCUUACUCACUGCUGUGGCUGGAGAGUAUAAGGAAUGCUUUUUCUUUUUUUCUUUCUUUCUUUCUUUUUUUUUUUUAAGACAGCAGUCUUUUUUUUUAAUUGGAAUUCUCGGGUGCCAA: 0.99
GGGAGUUCUACAGUCCGACGAUCGGGAUUUGUAGUAUCAGCUUGUUGAGCAAUGACUUUGAAUCUAGUUUUCAGUGAUCAGAAGCAGCAGUUAUUUGAGUGUAUGAAUGGAAUGAUGAUCACUGUGCUAUAAUUGGAAUUCUCGGGUGCCAA: 7.95
